Published values from different studies.
Values joined by “and” are separate records of one study, mostly repeats; a detail may differ. Numbers after ± are the reported error.

NC(=O)N1c2ccccc2C=Cc2ccccc21
adverse events incidence (measured: faeces hard; human male; oral, dose not given, AEs, treatment-related, on drug, CTCAE): 7%

O=C(N[C@H](Cc1c[nH]c2ccccc12)C(=O)Nc1ccncc1)c1ccc(N2CCN(c3ccc(F)c(F)c3)CC2)cc1F
concentration (Swiss Webster mouse, female, liver; oral, 50 mg/kg, 8 h, 20% HPβCD vehicle): 6930 nM

CC(C)(Sc1ccncc1-c1ccc(C#N)c2ccccc12)C(=O)O
AUC(0-24) (human, plasma; oral, 15 mg once daily, together with: febuxostat 0 mg): 318 ng·h/mL

COc1cc([C@@H]2[C@H]3CO[C@@]4(O)C(=O)[C@@H]2C=C([C@H]2Oc5cc(O)cc(O)c5C(=O)[C@@H]2O)[C@@H]34)ccc1O
AUC(0-4h) (OATP1B1/1B3 humanized mice, plasma; oral gavage, 500 mg/kg silymarin, geometric mean): 0.34 µM·h

C=CC(=O)Nc1cc(Nc2nccc(-c3cn(C)c4ccccc34)n2)c(OC)cc1N(C)CCN(C)C
recovery (human plasma; 5 h, storage stability, LLOQ sample): 92.3%

C[C@@]1(c2cc(NC(=O)c3ccc(C#N)cn3)ccc2F)C=CSC(N)=N1
dose-normalised Cmax (elderly humans, both sexes, plasma; oral, 150 mg single dose): 6.04 ng/mL

O=c1c(O)c(-c2ccc(O)c(O)c2)oc2cc(O)cc(O)c12
plasma concentration (human plasma; mean, both sexes): 344 nM

O=C1NCCc2nc(OCc3cccc(F)c3)ccc21
Irwin test score (measured: Piloerection; Sprague-Dawley rat male; oral, 100 mg/kg, 0 min; baseline: baseline, direction not given): 0

FC(F)(F)c1ccc(CNc2ccc(Cc3c[nH]c4ncc(Cl)cc34)cn2)cn1
treatment-related adverse events (measured: Nausea; patients with advanced solid tumours, non-TGCT cohort; oral, 1000 mg/day, grade 3 or higher): 0%

O=C(O)c1ccc(O)cc1
plasma concentration (human plasma; mean, both sexes): 1110 nM

Cc1ccc([C@@H]2O[C@H](CO)[C@@H](O)[C@H](O)[C@H]2O)cc1Cc1ccc(-c2ccc(F)cc2)s1
urinary potassium excretion change (Japanese type 2 diabetes patients; 200 mg, day 6, 24 h urine collection; baseline: baseline): 1.97 mEq

CC(C)(C(=O)N1CCOc2c(C#N)cncc2C1)C(F)F
subjects with TEAE (measured: abnormal urine odour; human, both sexes; oral, 20 mg once daily, 14 days, multiple ascending dose): 0%

CN[C@H](CC(C)C)C(=O)N[C@H]1C(=O)N[C@@H](CC(N)=O)C(=O)N[C@H]2C(=O)N[C@H]3C(=O)N[C@H](C(=O)N[C@H](C(=O)O)c4cc(O)cc(O)c4-c4cc3ccc4O)[C@H](O)c3ccc(c(Cl)c3)Oc3cc2cc(c3O[C@@H]2O[C@H](CO)[C@@H](O)[C@H](O)[C@H]2O[C@H]2C[C@](C)(N)[C@H](O)[C@H](C)O2)Oc2ccc(cc2Cl)[C@H]1O
amount permeated (starch gel membrane permeability; Gram-negative envelope surrogate; 200 µM, 20 min, pH 7.4): 0.21 nmol

O=C(O)c1ccc(O)c(O)c1
plasma concentration (human plasma; median, both sexes): 387 nM

O=C(Nc1nc2cccc(-c3ccc(CN4CCS(=O)(=O)CC4)cc3)n2n1)C1CC1
patients with increased blood amylase (rheumatoid arthritis patients; oral, 100 mg twice daily, 4 weeks, TEAE regardless of relatedness): 0%

CCOc1c([C@H](C)n2nc(C)c3c(N)ncnc32)cc(Cl)c(F)c1[C@@H]1CNC(=O)C1
AUC(0-last) geometric mean (patients, monotherapy; oral, 30 mg once daily, cycle 1 day 15): 24.7 µM·h

C[C@H]1[C@H](NC(=O)/C(=N\OC(C)(C)C(=O)O)c2csc(N)n2)C(=O)N1S(=O)(=O)O
amount permeated (starch gel membrane permeability; Gram-negative envelope surrogate; 200 µM, 10 min, pH 7.4): 1.16 nmol

CNC(=O)c1ccc(-c2cnc3ncc(Cc4ccc5ncccc5c4)n3n2)cc1F
AUC(0-t) (human, plasma; oral, 200 mg, geometric mean): 5210 ng·h/mL

CCc1cc(C(=O)NC)c2nccc(N3CCc4c(cc(Cn5ccnc5)cc4-c4cn(C)nc4C(F)(F)F)C3=O)c2c1
serum DBIL level (Sprague Dawley rats; oral, 50 mg/kg once daily, 7 days): 0.8 ± 0.14 µmol/L

COc1ncc(-c2nc3c(n2C(C)C)[C@H](c2ccc(Cl)cc2)N(c2cc(Cl)cn(C)c2=O)C3=O)c(OC)n1
AUC(0-last) (LC-MS/MS; human, plasma; oral, 1 mg, cycle 1 day 8, low-dose arm): 109 ng·h/mL

COc1ccc2c3c([nH]c2c1)[C@H](CC(C)C)N1C(=O)[C@H](CC(=O)NC(C)C)NC(=O)[C@@H]1C3
serum concentration (wild-type mouse, male, serum; oral, 100 mg/kg, 0 h): 0 nM

O=C1c2ccncc2C(=O)c2c1[nH]c1ccccc21
oral bioavailability (Sprague-Dawley rat, male, plasma; oral, 5 mg/kg; baseline: intravenous AUC(0-t)): 21.1%

O=C(COc1ccc(Cl)cc1)NC12CC(c3nnc([C@H]4C[C@@H](OC(F)(F)F)C4)o3)(C1)C2
adverse event incidence (measured: Nausea; human; oral, dose not given, 14 days): 2.9%

NC[C@@H]1O[C@H](O[C@H]2[C@@H](O)[C@H](O[C@@H]3[C@@H](O)[C@H](N)C[C@H](N)[C@H]3O[C@H]3O[C@H](CO)[C@@H](O)[C@H](O)[C@H]3N)O[C@@H]2CO)[C@H](N)[C@@H](O)[C@@H]1O
body weight (NSG mice; dose not given, day 6 of treatment): 24.2 g and 22.7 g and 23.1 g and 23 g and 20.4 g and 23.3 g and 21.6 g and 22.2 g

C[C@H]1Oc2cc(cnc2N)-c2c(nn(C)c2C#N)CN(C)C(=O)c2ccc(F)cc21
CL (population PK; moderate renal impairment patients, plasma; oral, 100 mg, single dose): 120 mL/min

CC(=O)O[C@H]1C[C@@]2(C)[C@@H](C[C@@H](O)[C@H]3[C@@]4(C)CC[C@@H](O)[C@@H](C)[C@@H]4CC[C@@]32C)/C1=C(\CCC=C(C)C)C(=O)O
amount permeated (starch gel membrane permeability; Gram-negative envelope surrogate; 200 µM, 10 min, pH 7.4): 0.04 nmol

CCO[C@H]1CCN(Cc2c(OC)cc(C)c3[nH]ccc23)[C@H](c2ccc(C(=O)O)cc2)C1
unbound AUCinf (human healthy controls, plasma; oral, 200 mg single dose, median): 3600 ng·h/mL

C[C@@H](N)C1CCN(S(=O)(=O)c2cccc3cnccc23)CC1
participants with TEAEs (healthy volunteers; 25 mg, fasted): 16.7%

N#Cc1ccc2c(c1)[C@H]1CCCN(C(=O)c3ccc4[nH]cnc4c3)[C@H]1C2
mean ACTH level (human; 160 mg, day 15): 5.8 pmol/L

CC(C)NCCCC[C@@H]1NC(=O)[C@H](Cc2ccc(O)cc2)NC(=O)[C@H](Cc2ccccc2)NC(=O)CC[C@H](C(=O)N[C@@H](CCCCNC(C)C)C(=O)N[C@@H](CCCCNC(=O)[C@H](CCC(=O)O)NC(=O)[C@H](CCC(=O)O)NC(=O)[C@H](CCC(=O)O)NC(=O)CN2CCN(CC(=O)O)CCN(CC(=O)O)CCN(CC(=O)O)CC2)C(N)=O)NC(=O)CNC(=O)[C@H](Cc2ccc3ccccc3c2)NC(=O)[C@@H](CCCNC(=N)N)NC1=O [gallium-68 labelled]
tissue uptake (mouse with Daudi xenograft, pancreas; intravenous, 2 h): 0.05 %ID/g

O=Cc1ccc(O)cc1
plasma concentration (human plasma; median, both sexes): 1660 nM

CCNC(=O)[C@@H]1CCCN1C(=O)[C@H](CCCNC(=N)N)NC(=O)[C@H](CC(C)C)NC(=O)[C@@H](CC(C)C)NC(=O)[C@H](Cc1ccc(O)cc1)NC(=O)[C@H](CO)NC(=O)[C@H](Cc1c[nH]c2ccccc12)NC(=O)[C@H](Cc1c[nH]cn1)NC(=O)[C@@H]1CCC(=O)N1
tolerability (healthy female volunteers; dose not given, all treatment groups): not toxic

CN(C)C(=N)N=C(N)N
drug-related adverse events (measured: mild diarrhea or headache; human male subjects; oral, 500 mg, 8 days, crossover trial; baseline: subjects): 8.3%

Cc1nc2ccc(OCc3ccc(C(F)(F)F)cc3)cc2[nH]1
tissue/plasma ratio (male Balb/c mice, kidney; oral, 10 mg/kg, 72 h; baseline: tissue over plasma): 4.9 ± 1.6

Cc1c(C(=O)Nc2ccc(N3C[C@@H](C)O[C@@H](C)C3)nc2)cccc1-c1ccc(OC(F)(F)F)cc1
tumour-to-plasma rate constant (PK model; mouse; oral, 40 mg/kg/day): 0.632 h⁻¹

N#Cc1ccc2c(c1)[C@H]1CCCN(C(=O)c3ccc4[nH]cnc4c3)[C@H]1C2
pre-dose plasma concentration (human, plasma; 20 mg once daily, day 14): 474 nmol/L

CC[C@H]1OC(=O)[C@H](C)[C@@H](O[C@H]2C[C@@](C)(OC)[C@@H](O)[C@H](C)O2)[C@H](C)[C@@H](O[C@@H]2O[C@H](C)C[C@H](N(C)C)[C@H]2O)[C@](C)(O)C[C@@H](C)C(=O)[C@H](C)[C@@H](O)[C@]1(C)O
amount permeated (starch gel membrane permeability; Gram-negative envelope surrogate; 200 µM, 90 min, pH 7.4): 1.91 nmol

[18F]c1ccc(-c2ccc3c(c2)[nH]c2ccncc23)cn1
SUV (ex vivo biodistribution; B6SJL mouse, normal, eyes; intravenous, 30 min): 3.73 ± 0.791

CCCCOc1nc(N)c2c(n1)N(Cc1cccc(CN3CCCC3)c1)CC(=O)N2
tolerability (people with HIV; together with: vorinostat and cobicistat): not toxic

O=C(Nc1ccc(OC(F)(F)Cl)cc1)c1cnc(N2CC[C@@H](O)C2)c(-c2ccn[nH]2)c1
grade ≥3 event rate (per treatment cycle, measured: platelet decrease; human patients; oral, dose not given, 28 day cycle): 4.4%

O=C(O)CCC(=O)O.[2H]C([2H])([2H])Oc1cc(C)c2[nH]ccc2c1CN1CC[C@@H](C2CC2)C[C@H]1c1ccc(C(=O)O)cc1
subjects with TEAE Diarrhea (multiple ascending dose; healthy Chinese subjects; 125 mg twice daily): 0%

N=C(N)NCCNC(=O)C1(Nc2ccccc2)CCN(Cc2ccccc2)CC1
clearance (Sprague-Dawley rats (female), plasma; intravenous, 2.5 mg/kg): 10 mL/min

COc1ccc2c(c1)CN(C(=O)CCN1CCC(Cc3ccccc3)CC1)CC[S@@+]2[O-]
systolic blood pressure (telemetry; conscious male beagle dogs; intravenous, NG, 2 h): 143 ± 19 mmHg

C[C@@H](c1nc(-c2ccc(C#N)cc2)cs1)[C@](O)(Cn1cncn1)c1cc(F)ccc1F
subjects with adverse event (flatulence; human; oral, dose not given, together with: ethinyl estradiol/norethindrone): 8.7%

Repeated from above:
O=Cc1ccc(O)cc1
plasma concentration (human plasma; median, both sexes): 1660 nM

CCNC(=O)[C@@H]1CCCN1C(=O)[C@H](CCCNC(=N)N)NC(=O)[C@H](CC(C)C)NC(=O)[C@@H](CC(C)C)NC(=O)[C@H](Cc1ccc(O)cc1)NC(=O)[C@H](CO)NC(=O)[C@H](Cc1c[nH]c2ccccc12)NC(=O)[C@H](Cc1c[nH]cn1)NC(=O)[C@@H]1CCC(=O)N1
tolerability (healthy female volunteers; dose not given, all treatment groups): not toxic

CN(C)C(=N)N=C(N)N
drug-related adverse events (measured: mild diarrhea or headache; human male subjects; oral, 500 mg, 8 days, crossover trial; baseline: subjects): 8.3%
